Assay results pooled from the literature.
Parts stem from different laboratories: compare values within a part only. Positions count from the first letter of the parent shown.

Set 1 — target: CCNE1, cyclin fold, Cln2 fusion (human); method: yeast growth competition, sequencing; sample: yeast; notes: strong parent motif; relative to: not given; reading: higher = stronger binding
Starting sequence: E2F1 docking peptide (human); PPVKRRLDFETDH
For `PPVKRYLDFETDH [R6Y]`, “normalised enrichment score” read 2.76.
`PPNKRRLDFETDH [V3N]` — result for “normalised enrichment score”: 0.102.
Under “normalised enrichment score”, `PPTKRRLDFETDH [V3T]` is recorded as 5.47.
For `PPVKRNLDFETDH [R6N]`, “normalised enrichment score” read 2.03.
Under “normalised enrichment score”, `PPVERRLDFETDH [K4E]` is recorded as 1.91.
Under “normalised enrichment score”, `PPVKRRTDFETDH [L7T]` is recorded as -0.101.
Under “normalised enrichment score”, `PPAKRRLDFETDH [V3A]` is recorded as 5.34.
`PPVKRRLDNETDH [F9N]`: “normalised enrichment score” 0.277.
`PPVKRRLAFETDH [D8A]`: “normalised enrichment score” 6.21.
`PPQKRRLDFETDH [V3Q]`: “normalised enrichment score” 1.32.
`PPVKNRLDFETDH [R5N]`: “normalised enrichment score” 0.337.
`PPVKMRLDFETDH [R5M]` — result for “normalised enrichment score”: 0.699.
Under “normalised enrichment score”, `PPHKRRLDFETDH [V3H]` is recorded as 3.92.
`PPVKRRLDFETGH [D12G]` — result for “normalised enrichment score”: 6.63.
For `PPVKERLDFETDH [R5E]`, “normalised enrichment score” read -0.046.
For `PPVKRGLDFETDH [R6G]`, “normalised enrichment score” read 0.808.
Under “normalised enrichment score”, `PPVKSRLDFETDH [R5S]` is recorded as -0.281.

Set 2 — method: RNA Bind-n-Seq; form: RNA; sample: in vitro; concentration: not given; relative to: input RNA pool; reading: higher = stronger binding
Target: RING finger protein unkempt homolog, zinc fingers 1-6, GST-SBP tag (UNK, Homo sapiens, UniProt Q9C0B0, residues 30-357)
Notes: RNA with constant flanks, human-mouse chimeric sites, ends assumed
Shared flanks, not repeated: GGGAGUUCUACAGUCCGACGAUC … CAACAGAGGAUUGAGCAUCA
Construct (chain): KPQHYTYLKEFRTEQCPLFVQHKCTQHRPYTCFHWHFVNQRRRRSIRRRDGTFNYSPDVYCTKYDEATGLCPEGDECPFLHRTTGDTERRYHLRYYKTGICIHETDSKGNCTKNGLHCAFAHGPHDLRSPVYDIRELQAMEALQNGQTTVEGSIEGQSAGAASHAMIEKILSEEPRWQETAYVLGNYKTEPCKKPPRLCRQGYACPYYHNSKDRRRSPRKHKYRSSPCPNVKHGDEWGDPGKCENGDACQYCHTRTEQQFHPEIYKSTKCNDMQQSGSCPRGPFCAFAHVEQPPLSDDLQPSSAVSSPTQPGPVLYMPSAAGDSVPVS
With `UGGCGCCUGCGCUCCCCACUCGUGUUUGUAUUUUUAUUUUUAUAAGAUACAUGUAUUUGUAAUAGAUCUUUUGUUACAUAAUGCUGAAAUGCUACUGGAGAUUAUGAAAAAUGUUUCAAU` the bound/input enrichment was 0.523 ratio.
With `CCUCCCCCGGGCCACCCACCCCUCCCGCUCCCAGCGGGAGAUCCAGGUUUCUUCUUAUUUCAUAGCAAAUAAGAAAAAUGUUCUACGCACAUUUUGUCCUCAGUAAACGAGGGCCUCUGG` the bound/input enrichment was 0.328 ratio.
`AGCGUUCAGGAAUUCAUGACCUUUACAAGUCAACUGAUUGUGGAACGCUCGGGGAAAGGCAGCAGAGCUUCUGUCAAAGAACAAGACUAUCUUUGCCAUGUCUACGUCCGGAGCGACAGU` has a bound/input enrichment of 0.0759 ratio.
With `GAGCGUCUCGCUCGAACUGGGAUCAUCGUGACCACGAGUGAGGCUGUCCUCCUACAGCUGGUGGCUGACAAAGACCACCCGAAGUUCAAGGAAAUUCAGAACCUAAUUAAGGCGAGUGCC` the bound/input enrichment was 0.0877 ratio.
With `UUAAUCCCCUUUACUGCUCCCCCACUUCUCAUGGUAAUAACAAAGUCUUAUAUCCCCGUCCUAGCUUUUACUCAGAUGGCUUAUGGAGCCGGUUUCCUAUCUUUCUUGGGAGGGAUCAGA` the bound/input enrichment was 0.719 ratio.
`CUGUGACCACAAGAUCCUACCUGAGUGGCAGCUGAAGCACUUUUCUUCUCCUUGCCUGAACCCCCCCCCACUGCCCCCCCAUCCCCCGCAGAAUUCCGAGAUGUUGCCUCUGCACGGUUC` has a bound/input enrichment of 1.32 ratio.
For `CCCUCCCCGGGCCACCCACCCCUCCCGGCUCCCCGCCGAGAUCCAGGUUUCUUCUGUUUUCAUAGCAAAUAAGAAAAAUGUUCUACGCACAUUUUGUCCUCAGUAAAAGAGGGCCUCUGG`, the bound/input enrichment was 2.23 ratio.

Set 3 — method: DHFR PCA, deep sequencing; sample: yeast; with: (+)-ABA 710 µM; relative to: wild-type fitted maximum; reading: higher = stronger binding
Target: ABI1, truncated, D143A, DHFR fusion (Arabidopsis thaliana)
Notes: methotrexate growth selection, single substitutions
Starting sequence: PYL1, truncated, DHFR fusion (Arabidopsis thaliana); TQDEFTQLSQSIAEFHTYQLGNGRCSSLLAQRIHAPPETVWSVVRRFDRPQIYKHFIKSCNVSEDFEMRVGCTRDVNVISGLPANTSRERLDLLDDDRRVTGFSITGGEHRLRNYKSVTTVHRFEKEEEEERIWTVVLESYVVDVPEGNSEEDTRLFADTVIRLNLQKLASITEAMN; partner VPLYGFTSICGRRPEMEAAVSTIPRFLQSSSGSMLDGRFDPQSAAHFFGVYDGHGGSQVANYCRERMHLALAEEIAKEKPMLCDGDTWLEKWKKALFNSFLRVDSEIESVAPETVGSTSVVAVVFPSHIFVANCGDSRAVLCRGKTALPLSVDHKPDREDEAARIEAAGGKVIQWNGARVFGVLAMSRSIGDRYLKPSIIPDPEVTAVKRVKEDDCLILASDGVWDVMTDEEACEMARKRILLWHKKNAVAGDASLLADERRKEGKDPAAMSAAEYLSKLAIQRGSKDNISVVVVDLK
Under “relative binding score”, `V142P` is recorded as -10.2%.
Under “relative binding score”, `D95W` is recorded as 83.7%.
`R49M`: “relative binding score” 99.6%.
Under “relative binding score”, `E14Y` is recorded as 84.6%.
Under “relative binding score”, `S150A` is recorded as 92.7%.
For `P50N`, “relative binding score” read 7.13%.
Under “relative binding score”, `T173P` is recorded as 43.2%.
`T119Y` — result for “relative binding score”: -10.8%.
For `Q31F`, “relative binding score” read 73.5%.
`D95Y` — result for “relative binding score”: 89.1%.
`G21H`: “relative binding score” 105%.
`Q19Y`: “relative binding score” 97.7%.
For `T173F`, “relative binding score” read 94.5%.
`C60Q`: “relative binding score” 22.3%.
`W41V`: “relative binding score” -13%.
`S11E`: “relative binding score” 112%.
For `R155C`, “relative binding score” read 99.4%.
`S42G` — result for “relative binding score”: 106%.
For `E4H`, “relative binding score” read 103%.
`V145T`: “relative binding score” 94.8%.
`R24G`: “relative binding score” 86.6%.

Set 4 — method: universal PBM; form: double-stranded DNA, one strand shown; sample: in vitro; concentration: not given; reading: higher = stronger binding
Target: Sal-like protein 4, full length isoform B (SALL4, Homo sapiens, UniProt Q9UJQ4-2, residues 1-616)
Notes: 8-mer, flanks averaged, mean of replicates
For `CAGCCCTG`, the E-score was -0.313.
`ACCATTAT` gave an E-score of 0.112.
The E-score of `TGAAAACA` is reported as 0.247.
The E-score of `GAAACAGA` is reported as 0.064.
`AGGCGACG` gave an E-score of -0.186.
With `CTGACGCC` the E-score was -0.237.
The E-score of `CATGGCCG` is reported as -0.289.
`CCACGCTA` has an E-score of -0.0182.
`GTACCAGA` has an E-score of 0.0405.
With `CGGACAGC` the E-score was -0.222.
With `AAAACACT` the E-score was 0.182.
For `ATTGGATC`, the E-score was 0.122.
`TGAGAACA` has an E-score of 0.0963.
`AGTCCACG` gave an E-score of -0.203.
For `CAGGCCCC`, the E-score was -0.443.
`CCTTTTTC` has an E-score of -0.0236.
For `CGCAAGCG`, the E-score was -0.193.
For `AGGAGATG`, the E-score was 0.0797.
The E-score of `CGGCCGTA` is reported as -0.159.
For `CGTGAGAG`, the E-score was -0.114.
`GAGGTTAA` has an E-score of 0.106.
For `CCGCTTCG`, the E-score was -0.304.
For `CGCGAGCC`, the E-score was -0.311.
With `ACCCTTTG` the E-score was -0.116.

Set 5 — method: protein binding microarray; form: double-stranded DNA, one strand shown; sample: in vitro; concentration: not given; relative to: not given; reading: higher = stronger binding
Target: Histone acetyltransferase KAT6A, winged helix 2, GST fusion (KAT6A, Homo sapiens, UniProt Q92794, residues 85-181)
Notes: 8-mer, flanks averaged, mean of 2 arrays, mostly near background
Construct (chain): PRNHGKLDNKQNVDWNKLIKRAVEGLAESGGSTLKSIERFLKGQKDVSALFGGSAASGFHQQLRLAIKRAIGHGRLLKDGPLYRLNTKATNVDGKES
`GAAGCCCC` has an E-score of -0.139.
`ATCAGGGA` gave an E-score of -0.211.
`AAAAAGAG` has an E-score of 0.103.
The E-score of `GCGACCTA` is reported as 0.106.
`CTGATACA` gave an E-score of -0.0727.
`CAACCTGC` has an E-score of 0.0848.
With `ATTAGGAG` the E-score was -0.0191.
The E-score of `CATATTTA` is reported as 0.0635.
For `CGCGAACC`, the E-score was 0.0915.
For `ATGGGACC`, the E-score was -0.0964.
For `CGTGTCTC`, the E-score was -0.0697.
For `CGAGAGCG`, the E-score was 0.018.
For `CTGTGATA`, the E-score was -0.0284.
For `CTCCGCAC`, the E-score was 0.0888.
For `CACCGGGC`, the E-score was 0.0683.
The E-score of `ACAGTTCG` is reported as -0.0983.
`CTAATGGC` has an E-score of 0.0535.
The E-score of `ACGCGGAC` is reported as 0.187.
For `AACCTATG`, the E-score was -0.0297.
`ACTTCTAT` gave an E-score of 0.00398.
`CAAGGCCG` gave an E-score of -0.0209.
